Measurements of several laboratories.
Compare with care: the assays were run in different laboratories. ± gives the spread as reported.

Compound	test	system	conditions	how to read	measurement	result
O=C(O)COc1c2c(c(OCC(=O)O)c3c1C1CC3c3cc4c(cc31)C1CC4c3ccccc31)C1CC2c2cc3c(cc21)C1CC3c2ccccc21	–	liposomes	150 µM, 30 min	–	maximal dye leakage	78%
C[C@@H](NC(=O)[C@@H](CCC(N)=O)NC(=O)[C@@H](C)NC(=O)[C@@H](CCCCN)NC(=O)[C@@H](CCC(N)=O)NC(=O)[C@@H](C)NC(=O)[C@@H](CCCCN)NC(=O)[C@@H](CCC(N)=O)NC(=O)[C@@H](C)NC(=O)[C@@H](CCC(N)=O)NC(=O)[C@@H](CCCCN)NC(=O)[C@@H](C)NC(=O)[C@@H](CCC(N)=O)NC(=O)[C@@H](CCCCN)NC(=O)[C@@H](C)NC(=O)[C@@H](CCC(N)=O)NC(=O)[C@@H](C)NC(=O)[C@@H](CCCCN)NC(=O)[C@@H](CCC(N)=O)NC(=O)[C@@H](C)NC(=O)[C@@H](CCCCN)NC(=O)[C@@H](CO)NC(=O)[C@@H](Cc1ccc(O)cc1)NC(=O)CNC(=O)CNC(=O)CN)C(=O)N[C@H](CCCCN)C(=O)N[C@H](CCC(N)=O)C(=O)N[C@H](C)C(=O)N[C@H](CCCCN)C(=O)N[C@H](CCC(N)=O)C(=O)O	–	rVλ6Wil fibrils	1 h, room temperature, 0.05% Tween-20	reference: 1 M NaCl over PBS	binding ratio	0.3
CC(C)C[C@H](NC(=O)[C@H](CCC(N)=O)NC(=O)[C@H](CCCNC(=N)N)NC(=O)[C@@H]1CCCN1C(=O)[C@@H](NC(=O)CNC(=O)[C@H](CC(C)C)NC(=O)[C@H](Cc1c[nH]c2ccccc12)NC(=O)[C@H](CC(=O)O)NC(=O)[C@H](CCC(N)=O)NC(=O)[C@H](CC(N)=O)NC(=O)[C@H](CCCNC(=N)N)NC(=O)[C@@H]1CCCN1C(=O)CNC(=O)[C@H](CCC(=O)O)NC(=O)[C@H](CC(C)C)NC(=O)[C@H](C)NC(=O)CNC(=O)[C@@H](NC(=O)[C@H](C)N)C(C)C)C(C)C)C(=O)O	CD8+ T cell priming, intracellular cytokine staining, item: IFNγ	C57BL/6J Batf3-/- mouse	10 µg	reference: unmodified antigen over compound conjugate	antigen dose ratio	20 fold
COC[C@@H](NC(C)=O)C(=O)NCc1ccc(OCc2cccc(Cl)c2)cc1	maximal electroshock seizure test	mouse	ip, time of peak effect	–	ED50	16 mg/kg
CC[C@H](C)[C@H](NC(=O)[C@@H](NC(=O)[C@H](CC(=O)O)NC(C)=O)[C@@H](C)O)C(=O)N[C@@H](CCCNC(=N)N)C(=O)N[C@@H](CC(C)C)C(=O)N[C@@H](CC(C)C)C(=O)N[C@@H](Cc1ccccc1)C(=O)N[C@@H](CCC(N)=O)C(=O)N[C@@H](CC(C)C)C(=O)N[C@@H](CCSC)C(=O)N[C@@H](CCCNC(=N)N)C(=O)N1CCC[C@H]1C(=O)N1CCC[C@H]1C(=O)N[C@@H](CC(N)=O)C(=O)N[C@@H](CCSC)C(=O)N[C@H](C(=O)N1CCC[C@H]1C(=O)N[C@@H](C)C(=O)N[C@H](C(=O)N[C@@H](CC(N)=O)C(=O)N[C@@H](C)C(N)=O)C(C)C)[C@@H](C)O	item: HA-23 tetramer	antigen-experienced tetramer+ CD4 T cells, healthy adults, HLA-DRB1*0101	dose not given	–	α4β7− CCR9− cells	10%
CC(C)C[C@@H]1NC(=O)[C@H](CS)NC(=O)[C@H](CCCCN)NC(=O)[C@H](CC(=O)O)N(C(=O)[C@@H](N)Cc2c[nH]c3ccccc23)CCCNC(=O)NCCCCN([C@@H](C)C(N)=O)C1=O	–	DBA/1 mouse collagen-induced arthritis	intraperitoneal, 360 pg/g weekly	reference: PBS	arthritis onset day	no effect
Cc1ccc(/C=C/C(=O)O)cc1-c1cc2c(cc1C)C(C)(C)CCC2(C)C	RNA sequencing, item: Alb mRNA	rat, brain	dose not given, 24 h, single dose	reference: vehicle	log2 fold change	-2.67
N[C@@H](Cc1ccc(O)cc1)C(=O)N1CCC[C@H]1C(=O)NCC(=O)NCC(=O)O	diketopiperazine formation, Arrhenius plot, ESI-MS	1-propanol	70, 80, 90 °C, 0.5% acetic acid	–	activation energy	18.4 ± 3.82 kcal/mol
C=C(NC(=O)C(=C)NC(=O)c1csc(C2=NC3c4csc(n4)C4NC(=O)c5csc(n5)C(C(C)(O)C(C)O)NC(=O)C5CSC(=N5)C(=CC)NC(=O)C(C(C)O)NC(=O)c5csc(n5)C3(CC2)NC(=O)C(C)NC(=O)C(=C)NC(=O)C(C(C)C)NC2C=Cc3c(C(C)O)cc(nc3C2O)C(=O)OC4C)n1)C(N)=O (stereo not drawn)	protein synthesis, coupled transcription-translation, item: luciferase	Escherichia coli S30 extract	1 h, 37 °C	–	IC50	> 3.28 µM
C[C@H](NC(=O)[C@H](CCC(N)=O)NC(=O)[C@H](CCCCN)NC(=O)[C@H](C)NC(=O)[C@@H]1CCCN1C(=O)[C@H](C)NC(=O)[C@H](CCCCN)NC(=O)[C@H](CCC(N)=O)NC(=O)[C@H](C)NC(=O)[C@H](CCCCN)NC(=O)[C@H](CCC(N)=O)NC(=O)[C@@H]1CCCN1C(=O)[C@H](CCC(N)=O)NC(=O)[C@H](CCCCN)NC(=O)[C@H](C)NC(=O)[C@H](CCC(N)=O)NC(=O)[C@H](CCCCN)NC(=O)[C@H](C)NC(=O)[C@@H]1CCCN1C(=O)[C@H](C)NC(=O)[C@H](CCCCN)NC(=O)[C@H](CCC(N)=O)NC(=O)[C@H](C)NC(=O)[C@H](CCCCN)NC(=O)[C@H](CO)NC(=O)[C@H](Cc1ccc(O)cc1)NC(=O)CNC(=O)CNC(=O)CN)C(=O)N[C@@H](CCCCN)C(=O)N[C@@H](CCC(N)=O)C(=O)O	–	human ALκ4 amyloid extract	1 h, room temperature	reference: 1 M NaCl over PBS	binding ratio	0.03
CC[C@H](C)[C@H](NC(=O)[C@H](CCCCN)NC(=O)CNC(=O)[C@H](CC(C)C)NC(=O)[C@H](Cc1ccccc1)NC(=O)[C@H](CCCCN)NC(=O)[C@H](CO)NC(=O)[C@H](Cc1ccccc1)NC(=O)[C@H](Cc1c[nH]c2ccccc12)NC(=O)[C@H](CCC(N)=O)NC(=O)[C@@H](NC(=O)[C@H](Cc1ccccc1)NC(=O)CCCCCNC(=O)CN1CCN(CC(=O)O)CCN(CC(=O)O)CCN(CC(=O)O)CC1)C(C)C)C(=O)N[C@@H](CCC(=O)O)C(=O)N1CCC[C@H]1C(=O)N[C@@H](CC(=O)O)C(=O)N[C@H](C(=O)N[C@@H](CO)C(=O)N[C@@H](CCC(N)=O)C(=O)N[C@H](C(=O)N[C@@H](CCC(N)=O)C(=O)N[C@@H](CC(=O)O)C(=O)N1CCC[C@H]1C(=O)N[C@@H](CC(N)=O)C(=O)N[C@@H](CC(=O)O)C(=O)N[C@@H](CCC(N)=O)C(=O)N[C@@H](Cc1ccc(O)cc1)C(=O)N[C@@H](CCC(=O)O)C(=O)N1CCC[C@H]1C(=O)N[C@@H](Cc1ccccc1)C(=O)O)C(C)C)C(C)C [copper-64 labelled]	–	mice bearing CT26 tumours	2 h, together with: anti-PD1 plus anti-CTLA4	reference: vehicle	increase in tumour uptake	~50%
COC(=O)C[C@](O)(CCCC(C)(C)OC(C)=O)C(=O)O[C@@H]1C(OC)=C[C@]23CCCN2CCc2cc4c(cc2[C@H]13)OCO4	western blot	BALB/c nude mouse, KP-4 xenograft, tumour	5.4 mg/kg	reference: vehicle	MCL-1 protein level	decreased
O=C(O)/C=C/c1ccc(O)cc1	–	–	62.5 µg/mL	–	DPPH radical scavenging	51.8 ± 1.2%
CC(C)[C@H](N)C(=O)N[C@@H](Cc1ccc(O)cc1)C(=O)N[C@@H](CCCCN)C(=O)N[C@H](C(=O)N[C@@H](CCCCN)C(=O)N[C@H](C(=O)N[C@@H](CCCCN)C(=O)N[C@H](C(=O)N[C@@H](CCCCN)C(=O)N[C@H](C(=O)N[C@@H](CCCCN)C(=O)N[C@H](C(=O)N[C@@H](CCCCN)C(=O)N[C@H](C(=O)N[C@@H](CCCCN)C(=O)N[C@H](C(=O)N[C@@H](CCCCN)C(=O)N[C@H](C(=O)O)[C@@H](C)O)C(C)C)[C@@H](C)O)C(C)C)[C@@H](C)O)C(C)C)[C@@H](C)O)C(C)C	–	human IAPP fibrils	1 h, room temperature	reference: 1 M NaCl over PBS	binding ratio	0.2
CC(=O)N[C@@H](Cc1c[nH]c2ccccc12)C(=O)NCC(=O)N[C@@H](C)C(=O)N[C@H]1CSCC(=O)Nc2ccc(cc2)N=Nc2ccc(c(S(=O)(=O)O)c2)-c2ccc(cc2S(=O)(=O)O)N=Nc2ccc(cc2)NC(=O)CSC[C@@H](C(=O)N[C@@H](C)C(=O)N[C@@H](CCC(N)=O)C(N)=O)NC(=O)[C@H](CCCNC(=N)N)NC(=O)[C@H](C)NC(=O)[C@H](C)NC(=O)[C@H](C)NC(=O)[C@H](CCC(=O)O)NC(=O)[C@H](CCCNC(=N)N)NC(=O)[C@H](C)NC(=O)[C@H](C)NC(=O)[C@H](C)NC(=O)[C@H](CCC(=O)O)NC(=O)[C@H](CCCNC(=N)N)NC(=O)[C@H](C)NC(=O)[C@H](C)NC(=O)[C@H](C)NC(=O)[C@H](CCC(=O)O)NC(=O)[C@H](CCCNC(=N)N)NC(=O)[C@H](C)NC(=O)[C@H](C)NC(=O)[C@H](C)NC(=O)[C@H](CCC(=O)O)NC1=O	cis-to-trans reversion, UV-Vis absorbance	10 mM phosphate buffer	pH 7.0, 20 °C, together with: 365 nm irradiation	–	thermal relaxation half-life	16 ± 0.5 min
CC(C)C[C@@H]1NC(=O)[C@H](C(C)C)NC(=O)[C@H](CO)NC(=O)CNC(=O)CNC(=O)[C@H](CCCNC(=N)N)NC(=O)[C@@H]2CCCN2C(=O)[C@@H](NC(=O)CC[C@H](NC(=O)c2ccc(N(C)Cc3cnc4nc(N)nc(N)c4n3)cc2)C(=O)O)C(C)(C)SSC[C@@H](C(=O)O)NC(=O)CNC(=O)[C@H]([C@@H](C)O)NC(=O)[C@H](C(C)C)NC1=O	–	rat adjuvant arthritis	iv, 0.05 mg/kg once daily, day 14	–	liver weight	5.88 ± 0.069 g
COc1ccc([N+](=O)[O-])cc1NC(=O)CCC(=O)[O][Zn][O]C(=O)CCC(=O)Nc1cc([N+](=O)[O-])ccc1OC.c1ccncc1	ABTS scavenging	–	31.25 µg/mL	–	inhibition	65%
CCOP(=O)(OCC)OCCCCOC(=O)CC1=C(C)C(=Cc2ccc([S+](C)[O-])cc2)c2ccc(F)cc21 (stereo not drawn)	immunoblotting, item: ADAM17	nude mice, orthotopic A549 tumour, tumour	inhalation, dose not given	reference: vehicle	protein level reduction	40%
